Measurements of several laboratories.
Lines come from different studies, so protocols differ. Numbers after ± are the reported error.
Organism: human cytomegalovirus

Nc1ccn(C[C@@H](CO)OCP(=O)(O)O)c(=O)n1 — EC50 (cytopathic effect; HEL, AD169): 0.86 ± 0.37 µM
CCOC(=O)C(C)NP(=O)(COC(CF)CN1CN2C=C(c3ccc(OC)cc3)NC2=NC1=O)NC(C)C(=O)OCC (stereo not drawn) — EC50 (cytopathic effect; HEL, AD-169): > 100 µM
CCOP(=O)(OCC)[C@@H]1C[C@H](C(=O)Nc2cc3c4c(cccc4c2)C(=O)N(CCN(C)C)C3=O)ON1C (racemic) — EC50 (plaque formation; HEL, AD169): 45 µM
O=c1[nH]c(=O)c2ncn(CC(CO)OCP(=O)(O)O)c2[nH]1 (racemic) — EC50 (cytopathic effect; HEL, AD169): 86.9 ± 21.1 µM
Nc1ccn(C[C@@H](CO)OCP(=O)(O)O)c(=O)n1 — EC50 (cytopathic effect; HEL, AD-169): 0.93 ± 0.34 µM
Cc1cn([C@H]2C[C@H](N=[N+]=[N-])[C@@H](COC(=O)Cn3c(=O)ccn(CCCCCCCCCCCCOc4ccc(Br)cc4)c3=O)O2)c(=O)[nH]c1=O — EC50 (viral replication, plaque reduction; WS1, AD169; 5 days): 5.1 ± 1.2 µM
CCCN1C(=O)c2cccc3cc(NC(=O)[C@@H]4C[C@@H](P(=O)(OCC)OCC)N(C)O4)cc(c23)C1=O (racemic) — EC50 (viral plaque formation, plaque reduction; HEL, Davis): 55 µM
CCOC(=O)C(C)NP(=O)(COC(CF)CN1CN2C=C(c3ccc([N+](=O)[O-])cc3)NC2=NC1=O)NC(C)C(=O)OCC (stereo not drawn) — EC50 (cytopathic effect; HEL, AD-169): > 100 µM
O=c1nc(NC2CC2)c2ncn(CCOCP(=O)(O)O)c2[nH]1 — EC50 (cytopathic effect; HEL, Davis): > 100 µM
OC[C@H]1O[C@@H](n2cnc3c(O)nc(-n4cc(-c5ccccc5)nn4)nc32)[C@H](O)[C@@H]1O — EC50 (viral plaque formation; HEL, AD-169): > 50 µM
Nc1ncn(CC(OCP(=O)(O)O)C(F)(F)F)c(=O)n1 (stereo not drawn) — EC50 (cytopathic effect; HEL, AD-169): > 100 µM
CCCCCCCCCCCCCCCCOCCCOP(=O)(O)COCCn1cnc2c(=O)[nH]c(=O)[nH]c21 — EC50 (cytopathic effect; HEL, Davis): 0.05 ± 0.05 µM
OC[C@H]1O[C@@H](n2cnc3c(NCc4ccccc4)nc(-n4cc(-c5ccccc5)nn4)nc32)[C@H](O)[C@@H]1O — EC50 (viral plaque formation; HEL, Davis): > 40 µM
Cc1cn([C@H]2C[C@H](N=[N+]=[N-])[C@@H](COC(=O)Cn3c(=O)ccn(CCCCCOc4ccc(Br)cc4)c3=O)O2)c(=O)[nH]c1=O — EC50 (viral replication, plaque reduction; WS1, AD169; 5 days): 4.4 ± 2.1 µM
C[C@H](Cn1cnc2c(=O)[nH]c(=O)[nH]c21)OCP(=O)(O)O — EC50 (cytopathic effect; HEL, Davis): > 100 µM
Nc1ccn(C[C@@H](CO)OCP(=O)(O)O)c(=O)n1 — EC50 (plaque formation; HEL, AD169): 0.92 µM
O=C(O)Cn1c(=O)ccn(CCCCCCCCOc2ccc(Br)cc2)c1=O — EC50 (viral replication, plaque reduction; WS1, AD169; 5 days): 11.9 ± 2.1 µM
Nc1ncn(C[C@@H](CF)OCP(=O)(O)O)c(=O)n1 — EC50 (cytopathic effect; HEL, AD-169): > 100 µM
CC(C)[C@H](NC(=O)[C@]1(Cc2ccccc2)CCN1C(=O)OCc1ccccc1)C(N)=O — EC50 (viral replication; HEL fibroblasts, Davis; 168 h): 76 µM
O=C(O)Cn1c(=O)ccn(CCCCCCOc2ccc(Br)cc2)c1=O — EC50 (viral replication, plaque reduction; WS1, AD169; 5 days): 78.1 ± 18.3 µM
Nc1ncn(CC(O)C(F)(F)F)c(=O)n1 (stereo not drawn) — EC50 (cytopathic effect; HEL, AD-169): 231 ± 12.9 µM
O=c1[nH]c(=O)c2ncn(C[C@H](CF)OCP(=O)(O)O)c2[nH]1 — EC50 (cytopathic effect; HEL, AD169): > 313 µM
Cc1cn([C@H]2C[C@H](N=[N+]=[N-])[C@@H](COC(=O)Cn3c(=O)ccn(CCCCCCCCOc4ccc(Br)cc4)c3=O)O2)c(=O)[nH]c1=O — EC50 (viral replication, plaque reduction; WS1, AD169; 5 days): 12.2 ± 1.7 µM
Nc1ccn(C[C@@H](CO)OCP(=O)(O)O)c(=O)n1 — EC50 (virus-induced cytopathicity; HEL, AD-169): 1 ± 0.14 µM

Excerpt of the above:
Nc1ccn(C[C@@H](CO)OCP(=O)(O)O)c(=O)n1 — EC50 (cytopathic effect; HEL, AD169): 0.86 ± 0.37 µM
